Assay results collected from several papers.
A part holds a random share of what one study measured.

Block 1
Target: Interferon regulatory factor 7, full length, phosphomimetic (IRF7, Homo sapiens, UniProt Q92985, residues 1-503, S101K/S471D/S472D/S475D/S476D/S477D/S483D/S484D/S487D)
UniProt Q92985, sequence (whole entry, unmodified, looked up): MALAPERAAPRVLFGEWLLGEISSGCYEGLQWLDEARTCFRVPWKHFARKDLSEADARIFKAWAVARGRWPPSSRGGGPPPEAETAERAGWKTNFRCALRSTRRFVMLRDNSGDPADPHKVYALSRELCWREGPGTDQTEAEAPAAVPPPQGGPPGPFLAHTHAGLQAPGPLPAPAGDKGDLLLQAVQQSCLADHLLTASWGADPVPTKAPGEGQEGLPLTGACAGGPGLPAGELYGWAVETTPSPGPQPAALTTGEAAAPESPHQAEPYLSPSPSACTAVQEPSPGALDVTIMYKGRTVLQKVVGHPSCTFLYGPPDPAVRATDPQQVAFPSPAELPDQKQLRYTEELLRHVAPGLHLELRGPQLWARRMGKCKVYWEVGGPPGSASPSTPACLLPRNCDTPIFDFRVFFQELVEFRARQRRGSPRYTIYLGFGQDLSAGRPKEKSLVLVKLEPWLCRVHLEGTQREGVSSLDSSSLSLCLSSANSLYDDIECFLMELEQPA
Method: protein-binding microarray
Form: double-stranded DNA, one strand shown
Matrix: in vitro
Concentration: 250 nM
Setting: 60-bp whole probe
Together with: salmon DNA 0.4 mg/ml
Baseline: random background probes
Reading: higher = stronger binding
Constant ends, left off below: GCCTAGCAC … GTCTTGATTCGCTTGACGCTGCTG
`TTAGGACTGGAGACTGGGTTAGTGCTA` has a log fluorescence of -0.659 z-score.
`TTAGAAATCAGTTTCGATTAGTGCTAG` gave a log fluorescence of 8.77 z-score.
`GACGGACTGCTACTGCTGACGTGCTAG` gave a log fluorescence of -0.741 z-score.
With `GACGGCCTCGGTCTCGGGACGTGCTAG` the log fluorescence was 0.0801 z-score.
The log fluorescence of `ACCTATGTGTACCACTAGACGTGCTAG` is reported as 0.161 z-score.
For `TTAGGACTGGGTTTCGGATAGTGCTAG`, the log fluorescence was 3.17 z-score.

Block 2
Target: Sal-like protein 4, full length isoform A (SALL4, Homo sapiens, UniProt Q9UJQ4, residues 1-1053)
UniProt Q9UJQ4, sequence (whole entry, looked up): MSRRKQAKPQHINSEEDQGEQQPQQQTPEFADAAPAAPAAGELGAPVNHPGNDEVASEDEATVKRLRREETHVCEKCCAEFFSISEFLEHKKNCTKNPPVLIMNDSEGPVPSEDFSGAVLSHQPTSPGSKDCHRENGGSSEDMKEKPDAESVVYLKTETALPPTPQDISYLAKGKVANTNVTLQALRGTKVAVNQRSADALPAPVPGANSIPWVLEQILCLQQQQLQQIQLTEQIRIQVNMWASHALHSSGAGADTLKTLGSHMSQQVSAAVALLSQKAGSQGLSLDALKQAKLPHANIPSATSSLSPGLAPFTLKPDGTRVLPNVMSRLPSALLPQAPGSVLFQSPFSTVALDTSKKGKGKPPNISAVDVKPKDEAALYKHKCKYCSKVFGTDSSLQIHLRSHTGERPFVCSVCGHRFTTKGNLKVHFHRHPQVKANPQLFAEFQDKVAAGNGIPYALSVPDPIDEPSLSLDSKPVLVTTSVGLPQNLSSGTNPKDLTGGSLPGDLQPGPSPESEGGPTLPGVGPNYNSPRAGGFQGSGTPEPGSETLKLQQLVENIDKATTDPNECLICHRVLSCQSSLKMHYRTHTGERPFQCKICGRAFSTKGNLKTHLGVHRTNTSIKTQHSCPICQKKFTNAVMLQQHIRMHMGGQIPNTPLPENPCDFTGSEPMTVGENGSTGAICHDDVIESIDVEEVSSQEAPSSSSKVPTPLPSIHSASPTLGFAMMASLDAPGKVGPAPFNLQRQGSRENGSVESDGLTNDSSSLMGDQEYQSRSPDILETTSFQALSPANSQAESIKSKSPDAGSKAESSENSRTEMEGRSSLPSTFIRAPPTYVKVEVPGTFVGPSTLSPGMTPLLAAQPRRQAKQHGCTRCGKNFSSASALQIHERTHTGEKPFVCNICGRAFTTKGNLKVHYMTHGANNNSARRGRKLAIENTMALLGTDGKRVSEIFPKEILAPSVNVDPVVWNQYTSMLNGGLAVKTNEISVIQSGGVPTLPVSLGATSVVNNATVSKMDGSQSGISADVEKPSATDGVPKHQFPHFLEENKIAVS
Method: universal PBM
Form: double-stranded DNA, one strand shown
Matrix: in vitro
Concentration: 600 nM
Setting: 8-mer, flanks averaged, mean of replicates
Reading: higher = stronger binding
`ACACGAGA` gave an E-score of -0.103.
The E-score of `GACCCGGC` is reported as -0.334.
`CATAAGTC` has an E-score of 0.238.

Mixed results
UNK zinc fingers 1-6, GST-SBP tag: RING finger protein unkempt homolog, zinc fingers 1-6, GST-SBP tag (UNK, Homo sapiens, UniProt Q9C0B0, residues 30-357)
UniProt Q9C0B0, sequence (30-357, looked up): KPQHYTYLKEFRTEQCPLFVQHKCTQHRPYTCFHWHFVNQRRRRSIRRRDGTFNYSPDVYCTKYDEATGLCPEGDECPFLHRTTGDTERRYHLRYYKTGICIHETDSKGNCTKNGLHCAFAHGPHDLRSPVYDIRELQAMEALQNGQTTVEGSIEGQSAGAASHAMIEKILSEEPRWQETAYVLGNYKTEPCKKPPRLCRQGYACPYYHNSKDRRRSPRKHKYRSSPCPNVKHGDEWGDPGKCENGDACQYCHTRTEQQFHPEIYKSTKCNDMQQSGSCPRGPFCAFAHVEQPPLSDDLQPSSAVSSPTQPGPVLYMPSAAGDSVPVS
`GGGAGUUCUACAGUCCGACGAUCCGGUUUGCAGUCCCUCCAGCACUUGGGAGUAAUUUGACCGACAAUGUCAUGAUCACAGUAGAUAUUAUUCCUUCAGGUUGGAAUUCAGCUGAUGGUAAAAGUGAUAAAACUAAAAGUGCGCAACAGAGGAUUGAGCAUCA` has a bound/input enrichment of 0.265 ratio (UNK zinc fingers 1-6, GST-SBP tag; RNA Bind-n-Seq; RNA, in vitro; not given, RNA with constant flanks, human and mouse sites, ends assumed; baseline: input RNA pool, higher = stronger binding).
The fold induction of `PhoQ, residues 284 288 289 292 302 303 SNSSNI` is reported as 1.22 (PhoP, residues 12 14 15 18 19 DLLYY (Escherichia coli, UniProt P23836); Sort-seq, refers to: YFP reporter; E. coli; PhoQ-PhoP variant library, together with: 10 µM Mg2+; baseline: high Mg2+ state, higher = stronger signaling).
For `GGGAGUUCUACAGUCCGACGAUCGAGUGCUUAAGCUGCCAACAGUCCGAAGAUGCUAUUUAUUUGUGUCUGUAAGUUUGUACACCGUAAUGCCAGCCUUGUUGCUGAAUUUUUUAUUUGGGGGGAGAUGACUUUGAAUUUUGUCAACAGAGGAUUGAGCAUCA`, the bound/input enrichment was 1.2 ratio (RING finger protein unkempt homolog, zinc fingers 1-6, SBP tag (UNK, Homo sapiens, UniProt Q9C0B0, residues 30-357); RNA Bind-n-Seq; RNA, in vitro; 100 nM, RNA with constant flanks, ends assumed; baseline: input RNA pool, higher = stronger binding).
For `GGGAGUUCUACAGUCCGACGAUCCAGAAUCGAGAGGGCCUGAGGGCCCUGCAGAAGGAUCUCAGCCUCUCUGAAGAUGUGAUGGUUUGCUUCGGGAACAUGUUUAUCAAGAUGCCUCACCCUGAGACAAAGGAAAUGAUUGAACAACAGAGGAUUGAGCAUCA`, the bound/input enrichment was 0.155 ratio (UNK zinc fingers 1-6, GST-SBP tag; RNA Bind-n-Seq; RNA, in vitro; not given, RNA with constant flanks, human and mouse sites, ends assumed; baseline: input RNA pool, higher = stronger binding).
The bound/input enrichment of `GGGAGUUCUACAGUCCGACGAUCAAGCUUUAGUUUACAUGUAAAAAGCUAGUCCCUAACUGGCUGGUGGCACAGGUGACCUGGAGUGAUAAAGAGCUCUGAGCUGGAAAAUGAGUGUCUGGCAUUACUUCAGUCAUGUGCUUUCAACAGAGGAUUGAGCAUCA` is reported as 1.51 ratio (UNK zinc fingers 1-6, GST-SBP tag; RNA Bind-n-Seq; RNA, in vitro; not given, RNA with constant flanks, human and mouse sites, ends assumed; baseline: input RNA pool, higher = stronger binding).

Some of these lines once more (block 2):
`ACACGAGA` gave an E-score of -0.103.
